Published values gathered from unrelated publications.
“And” joins repeats or separate records; there may be more than shown. ± marks the error that the study gave. Values after ≈ are worked out from the molar mass of the structure shown.

Compound = O=C(Nc1cccc(CO)c1)c1cc(-c2ccccc2)n(-c2ccccc2)n1; organism = Dengue virus; assay = viral replication, inhibitor, imaging; test system = Vero, DENV2; setting = 12.5 µM; measurement = inhibition; value = > 60%
Compound = Cc1cc(C(=O)Nc2nc3cccc(C)c3n2[C@H]2CCCCN(C(=O)/C=C/CN(C)C)C2)ccn1; organism = Trypanosoma brucei brucei; test system = Lister 427; setting = 50 µM, 6 h, kill kinetics; measurement = proliferation; value = 3.86% and 4.93% and 2.17% and 3.31% and 2.77%
Compound = CC(O)CNCC(C)O.O=C(O)C(Cl)Cl (stereo not shown); organism = Xanthium sibiricum; setting = 15 mg/mL, 21 days, post-emergence, greenhouse; measurement = herbicidal inhibition; value = 0%
Compound = CC(c1c[nH]c2ccccc12)c1c[nH]c2ccccc12; organism = Clostridioides difficile; assay = microbial growth, absorbance; measurement = IC50; value = > 50000 nM
Compound = FC(F)(F)c1cccc(CNc2nc(NC3CCN(Cc4ccccc4)CC3)c3nc[nH]c3n2)c1; organism = Cryptococcus neoformans; assay = RNA-seq, measured: CNAG_05316; test system = wild type; setting = 48 µg/mL, 3 h; scale = reference: untreated wild type; measurement = log2 fold change; value = 0.368
Compound = Cc1ccc(N(C)C(=O)[C@H](Cc2ccccc2)NC(=O)Cc2c[nH]c3ccc(O)cc23)cc1; organism = human immunodeficiency virus 1; assay = viral replication; test system = NL4-3 with subtype B gag/pol; measurement = EC50; value = 46 ± 10 nM
Compound = COC1C=COC2(C)Oc3c(C)c(O)c4c(c3C2=O)C2=NC3(CCN(CC(C)C)CC3)NC2=C(NC(=O)C(C)=CC=CC(C)C(O)C(C)C(O)C(C)C(OC(=O)Nc2cscn2)C1C)C4=O (stereo not shown); organism = Mycobacteroides abscessus; assay = intracellular growth, visual read; test system = THP-1 derived macrophages, ATCC 19977; measurement = IC90; value = 185 nM
Compound = CCCCCCCCCC(=O)N[C@@H](Cc1c[nH]c2ccccc12)C(=O)N[C@H](CC(N)=O)C(=O)N[C@@H](CC(=O)O)C(=O)N[C@@H]1C(=O)NCC(=O)N[C@@H](CCCNC(=O)OC2/C=C/CCCCC2)C(=O)N[C@@H](CC(=O)O)C(=O)N[C@H](C)C(=O)N[C@@H](CC(=O)O)C(=O)NCC(=O)N[C@H](CO)C(=O)N[C@@H]([C@H](C)CC(=O)O)C(=O)N[C@@H](CC(=O)c2ccccc2N)C(=O)O[C@@H]1C (stereo partly shown); organism = Staphylococcus aureus; assay = planktonic bacterial growth, isothermal microcalorimetry; test system = MRSA; setting = 1.0 µg/mL, 24 h, 37 °C; measurement = peak heat flow; value = 0 µW
Compound = N=C(N)NCCC[C@@H]1NC(=O)[C@H](CCCNC(=N)N)NC(=O)[C@@H](C(c2ccccc2)c2ccccc2)NC(=O)[C@H](Cc2c[nH]c3ccccc23)NC(=O)[C@@H](C(c2ccccc2)c2ccccc2)NC(=O)[C@@H](CCCNC(=N)N)NC(=O)[C@@H](CCCNC(=N)N)NC1=O; organism = Candida albicans; test system = ATCC 60193; setting = 4 x MIC, 12 h; measurement = reduction of viable cells; value = > 95%
Compound = CC(C)(C)NCC(SS(=O)(=O)O)c1ccccc1 (stereo not shown); organism = Schistosoma mansoni; test system = Swiss Webster mouse, infected; setting = oral, 600 mg/kg single dose, 44 days p.i., dosed day 1 p.i.; measurement = spleen weight; value = 0.44 g and 0.36 g and 0.45 g and 0.38 g
Compound = CC1(C)[C@H](NC(=O)/C(=N\OCc2cc(=O)c(O)cn2O)c2csc(N)n2)C(=O)N1OS(=O)(=O)O; organism = Citrobacter freundii; assay = agar dilution; test system = ATCC 43864 susceptible; measurement = MIC; value = 0.125 µg/mL (≈ 0.241 µM)
Compound = CC(C)=CCC/C(C)=C/CC/C(C)=C/Cc1c(O)cc(CO)c(C=O)c1O; organism = Stachybotrys chartarum; setting = 30 min, pH 7.0, 25 °C; measurement = kcat; value = 0.158 s⁻¹
Compound = C=C(NC(=O)c1csc(-c2nc3c(cc2O)-c2nc(cs2)C(=O)NC(C(C)O)C(=O)NC(=C(C)OC)c2nc(cs2)C(=O)NC2c4nc(cs4)C(=O)NC(COC(=O)c4c5c6c(cccc6n4O)COC(=O)C(OC4CC(C)(O)C(N(C)C)C(C)O4)C2OC5)c2nc-3cs2)n1)C(N)=O (stereo not shown); organism = Streptococcus pneumoniae; test system = -4, immunocompromised mice, lung; setting = 8 mg/kg/day once daily, 24 h post-dose; measurement = lung bacterial load; value = 5 log10 CFU/lung

Some of these lines once more:
Compound = CCCCCCCCCC(=O)N[C@@H](Cc1c[nH]c2ccccc12)C(=O)N[C@H](CC(N)=O)C(=O)N[C@@H](CC(=O)O)C(=O)N[C@@H]1C(=O)NCC(=O)N[C@@H](CCCNC(=O)OC2/C=C/CCCCC2)C(=O)N[C@@H](CC(=O)O)C(=O)N[C@H](C)C(=O)N[C@@H](CC(=O)O)C(=O)NCC(=O)N[C@H](CO)C(=O)N[C@@H]([C@H](C)CC(=O)O)C(=O)N[C@@H](CC(=O)c2ccccc2N)C(=O)O[C@@H]1C (stereo partly shown); organism = Staphylococcus aureus; assay = planktonic bacterial growth, isothermal microcalorimetry; test system = MRSA; setting = 1.0 µg/mL, 24 h, 37 °C; measurement = peak heat flow; value = 0 µW
Compound = N=C(N)NCCC[C@@H]1NC(=O)[C@H](CCCNC(=N)N)NC(=O)[C@@H](C(c2ccccc2)c2ccccc2)NC(=O)[C@H](Cc2c[nH]c3ccccc23)NC(=O)[C@@H](C(c2ccccc2)c2ccccc2)NC(=O)[C@@H](CCCNC(=N)N)NC(=O)[C@@H](CCCNC(=N)N)NC1=O; organism = Candida albicans; test system = ATCC 60193; setting = 4 x MIC, 12 h; measurement = reduction of viable cells; value = > 95%
